Measurements from different studies.
Lines come from different studies, so protocols differ. ± marks the error that the study gave.

| Structure (SMILES) | cell line | assay | setting | IC50 |
| --- | --- | --- | --- | --- |
| CC[C@H](C)[C@H](NC(=O)CNC(=O)[C@H](C)NC(=O)[C@H](CCC(=O)O)NC(=O)[C@@H]1CCCN1C(=O)CNC(=O)[C@H](C)NC(=O)[C@H](CCC(=O)O)NC(=O)[C@H](C)NC(=O)[C@H](CC(=O)O)NC(=O)[C@H](C)NC(=O)[C@H](CCC(=O)O)NC(=O)[C@H](C)NC(=O)[C@H](CCC(=O)O)NC(=O)[C@@H]1CCCN1C(=O)[C@@H](N)CCC(=O)O)C(=O)NCC(=O)N[C@@H](C)C(=O)N[C@H](C(=O)N[C@@H](CC(C)C)C(=O)N[C@@H](CCCCN)C(=O)N[C@H](C(=O)N[C@@H](CC(C)C)C(=O)N[C@H](C(=O)N[C@H](C(=O)NCC(=O)N[C@@H](CC(C)C)C(=O)N1CCC[C@H]1C(=O)N[C@@H](C)C(=O)N[C@@H](CC(C)C)C(=O)N[C@H](C(=O)N[C@@H](CO)C(=O)N[C@@H](Cc1c[nH]c2ccccc12)C(=O)N[C@H](C(=O)N[C@@H](CCCCN)C(=O)N[C@@H](CCCNC(=N)N)C(=O)N[C@@H](CCCCN)C(=O)N[C@@H](CCCNC(=N)N)C(=O)N[C@@H](CCC(N)=O)C(=O)N[C@@H](CCC(N)=O)C(N)=O)[C@@H](C)CC)[C@@H](C)CC)[C@@H](C)O)[C@@H](C)O)C(C)C)C(C)C | MCF7 vector control (FAP-negative) | cell viability, MTT | 72 h | 45.6 ± 5.6 µM |
| Cc1nn(-c2ccccc2)c(O)c1C(c1ccc(F)cc1)c1c(C)nn(-c2ccccc2)c1O | Ishikawa | cell growth or viability, MTT | 48 h | 38.2 µM |
| CC[C@H](C)[C@H](NC(=O)[C@H](CCCCN)NC(=O)[C@@H](NC(=O)[C@H](CCC(N)=O)NC(=O)[C@H](CCCNC(=N)N)NC(=O)[C@H](CC(C)C)NC(=O)CNC(=O)[C@H](Cc1ccccc1)NC(=O)CNC(=O)[C@H](Cc1ccc(O)cc1)NC(=O)CNC(=O)[C@H](CCCCN)NC(=O)[C@@H](NC(=O)[C@H](Cc1ccccc1)NC(=O)[C@@H](NC(=O)[C@H](CC(=O)O)NC(=O)[C@@H](N)CCCNC(=N)N)C(C)C)[C@@H](C)O)[C@@H](C)CC)C(=O)N[C@@H](Cc1c[nH]c2ccccc12)C(=O)N[C@@H](Cc1ccccc1)C(=O)N[C@@H](CCC(N)=O)C(=O)N[C@@H](CC(N)=O)C(=O)N[C@@H](CCCNC(=N)N)C(=O)N[C@@H](CCCNC(=N)N)C(=O)N[C@@H](CCSC)C(=O)N[C@@H](CCCCN)C(=O)N[C@@H](Cc1c[nH]c2ccccc12)C(=O)N[C@@H](CCCCN)C(=O)N[C@@H](CCCCN)C(=O)O | CLL patient PBMCs | cell death, PI staining flow cytometry | 90 min, room temperature, serum-free medium | 2.2 µM |
| COc1cc(-c2oc3cc(OC)c(OC)c(O)c3c(=O)c2OC)ccc1O | human Neutrophil | superoxide release, inhibitor, absorbance | – | 4.32 µM |
| CC[C@H](C)[C@@H]1NC(=O)[C@H](CCCNC(=N)N)NC(=O)C[C@@H](c2cccc3ccccc23)NC(=O)[C@@H]2CSSC[C@H](NC(=O)C[C@@H](c3cccc4ccccc34)NC(=O)[C@H](CCCNC(=N)N)NC(=O)[C@@H]3CCCN3C(=O)[C@@H]3CCCN3C1=O)C(=O)N[C@@H](Cc1ccccc1)C(=O)N1CCC[C@H]1C(=O)N[C@@H](CC(=O)O)C(=O)N[C@@H](CC(=O)O)C(=O)N[C@@H](Cc1ccccc1)C(=O)N2 | HLF | cell growth or viability, ATP luminescence | – | > 100 µM |
| Cc1nn(-c2ccccc2)c(O)c1C(c1cccc([N+](=O)[O-])c1)c1c(C)nn(-c2ccccc2)c1O | Ishikawa | cell growth or viability, MTT | 48 h | 32.8 µM |
| CC(N)C(O)CCCCCCCCCCCCCCC(=O)CCCCCCCC(O)C(C)N (centres unmarked) | HCC70 | cell growth or viability, resazurin | 96 h | 47 µM |
| Cc1cc(C)c(-n2ccn(-c3c(C)cc(C)cc3C)c2=[Se])c(C)c1.[Cl][Ag] | LoVo-OXP (oxaliplatin-resistant) | MTT | 72 h | 0.9 ± 0.1 µM |
| N=C(N)NCCC[C@H](NC(=O)[C@H](CCCNC(=N)N)NC(=O)[C@@H]1CCCN1C(=O)[C@H](CCCNC(=N)N)NC(=O)[C@H](CCCNC(=N)N)NC(=O)[C@H](CCCNC(=N)N)NC(=O)[C@H](Cc1c[nH]c2ccccc12)NC(=O)[C@H](CCCNC(=N)N)NC(=O)[C@H](CCCNC(=N)N)NC(=O)[C@H](CCCNC(=N)N)NC(=O)[C@H](CCCNC(=N)N)NC(=O)[C@H](CCCNC(=N)N)NC(=O)[C@H](Cc1c[nH]c2ccccc12)NC(=O)[C@H](CCCNC(=N)N)NC(=O)[C@H](CCCNC(=N)N)NC(=O)[C@H](Cc1ccc(O)cc1)NC(=O)[C@H](CCCNC(=N)N)NC(=O)[C@H](CCCNC(=N)N)NC(=O)[C@H](CCCNC(=N)N)NC(=O)[C@@H](N)Cc1c[nH]c2ccccc12)C(N)=O | SK-BR-3 | cell viability, CellTiter-Blue | 24 h, serum-free medium | 14.1 ± 1 µM |
| COC(=O)CC[C@@H](NC(=O)[C@@H](Cc1ccc(OP(=O)(O)O)cc1)NC(=O)[C@@H](Cc1ccccc1)NC(=O)[C@@H](Cc1ccccc1)NC(=O)Cc1ccc2ccccc2c1)C(=O)OC | OVCAR-3 | cell growth or viability | – | > 200 µM |
| CC[C@@H](C)[C@@H](NC(=O)[C@@H](Cc1c[nH]c2ccccc12)NC(=O)[C@H](N)CCCNC(=N)N)C(=O)N[C@H](CCSC)C(=O)N[C@H](Cc1ccc(O)cc1)C(=O)N[C@H](Cc1ccccc1)C(N)=O | SK-BR-3 | cell growth or viability, trypan blue | – | 10 µM |
| [Cl][Au].[Se]=c1n(C2CCCCC2)ccn1C1CCCCC1 | LoVo-OXP (oxaliplatin-resistant) | MTT | 72 h | 2.1 ± 0.3 µM |
| CC[C@H](C)[C@H](NC(=O)[C@H](C)NC(=O)[C@@H](N)Cc1c[nH]cn1)C(=O)N[C@@H](Cc1ccc(O)cc1)C(=O)N1CCC[C@H]1C(=O)N[C@@H](CCCNC(=N)N)C(=O)N[C@@H](Cc1c[nH]cn1)C(=O)N[C@@H](CO)C(=O)N[C@@H](Cc1c[nH]c2ccccc12)C(=O)N[C@H](C(=O)N[C@@H](Cc1c[nH]c2ccccc12)C(=O)N[C@@H](CCC(=O)O)C(=O)N[C@@H](CCCCN)C(=O)N[C@@H](CCCCN)C(=O)N[C@@H](CC(C)C)C(=O)N[C@@H](CCC(=O)O)C(=O)N[C@H](C(=O)N[C@@H](C)C(=O)N[C@H](C(=O)N[C@@H](CC(N)=O)C(=O)N[C@@H](CC(C)C)C(=O)N[C@@H](C)C(=O)N[C@@H](Cc1c[nH]c2ccccc12)C(=O)N[C@H](C(=O)N[C@@H](C)C(=O)NCC(=O)N[C@@H](CC(N)=O)C(=O)N[C@@H](CO)C(=O)N[C@@H](CC(N)=O)C(=O)N[C@@H](CCCCN)C(=O)N[C@@H](Cc1c[nH]c2ccccc12)C(=O)N[C@H](C(=O)N[C@@H](Cc1c[nH]c2ccccc12)C(=O)N[C@@H](CCCCN)C(=O)O)[C@@H](C)O)[C@@H](C)O)C(C)C)[C@@H](C)O)[C@@H](C)O | CLL patient PBMCs | cell death, PI staining flow cytometry | 90 min, room temperature, serum-free medium | 1.7 µM |
| CC(=O)N[C@@H](Cc1c[nH]cn1)C(=O)N[C@@H](CCCNC(=N)N)C(=O)N[C@@H](CCCNC(=N)N)C(=O)N[C@@H](CCCNC(=N)N)C(=O)N[C@@H](CCCNC(=N)N)C(=O)N[C@@H](CCCNC(=N)N)C(=O)N[C@@H](CCCNC(=N)N)C(=O)N[C@@H](CCCNC(=N)N)C(=O)N[C@@H](CCCNC(=N)N)C(=O)N[C@@H](Cc1c[nH]cn1)C(N)=O | VX2 | MTT | 24 h | 12.4 ± 1.18 µM |
| C=C1C(=O)O[C@H]2C[C@H](C)C(/C=C/C(C)=O)=CC[C@H]12 | L1210 | cell growth or viability, MTT | 24 h | 12.3 µM |
| CCC(C)C1OC(=O)C(NC(=O)c2cccc(NC=O)c2O)C(C)OC(=O)C(C(C)CC)OC(=O)C(C)(C)C(=O)C(Cc2ccccc2)OC1=O (centres unmarked) | SGC-7901/DDP cisplatin-resistant | cell viability, CCK-8 | 72 h | 0.0017 ± 0.0002 µM |
| CC(C)C12OC1C1OC13C1(C)CCC4=C(COC4=O)C1CC1OC13C2OC(=O)CCCOC1OC(CO)C(O)C(O)C1O (centres unmarked) | DLD-1 | cell growth | 1% oxygen hypoxia | 1.3 µM |
| CC1=CC(C)=[N+]2C1=Cc1ccc(CCC(=O)NCC3C[NH][Pt]([Cl])([Cl])[NH]3)n1[B-]2(F)F (centres unmarked) | CP.5 spheroids in 3D Matrigel | cytotoxicity, CellTiter-Glo | 4 days, pre-grown 4 days | 300 ± 92.2 µM |
| Cc1cc(C)c(N2CCN(c3c(C)cc(C)cc3C)C2=[Se])c(C)c1.[Cl][Ag] | LoVo-OXP (oxaliplatin-resistant) | MTT | 72 h | 2.4 ± 0.8 µM |
| CC[C@@H](C(=O)[C@@H](C)[C@@H](O)[C@H](C)[C@@H]1O[C@@H]([C@@H](CC)C(=O)O)CC[C@@H]1C)[C@H]1O[C@]2(C=C[C@H](N)[C@]3(CC[C@@](C)([C@H]4CC[C@](O)(CC)[C@H](C)O4)O3)O2)[C@H](C)C[C@@H]1C | HMLER CD24low/CD44high | CellTiter-Blue | 72 h | 20.5 ± 3.3 µM |
| C1CCN(C2CCNCC2)CC1.CCCC(CCC)C(=O)[O][Pt]([OH])([Cl])[Cl].CCCCN | A-375 | cytotoxicity | 72 h | 12.4 ± 2.93 µM |
| C=C(C(=O)O)[C@@H]1CC[C@@]2(C)CCC(=O)C(C)=C2C1 | human Neutrophil | superoxide release, inhibitor, absorbance | – | > 10 µM |
| CNC(=O)c1cc(Oc2ccc(NC(=O)CCC(=O)OC3OC4OC5(C)CCC6C(C)CCC(C3C)C46OO5)cc2)ccn1 (centres unmarked) | Huh-7 | cell growth or viability, MTT | 72 h | 12.6 µM |
| NC1CCCCC1N.O=C1[O][Pt]([O]C(=O)c2ccc(P(c3ccccc3)c3ccccc3)cc2)([O]C(=O)c2ccc(P(c3ccccc3)c3ccccc3)cc2)[O]C1=O.[Cl][Au].[Cl][Au] | MDA-MB-157 | cell growth or viability, resazurin | 72 h | 3.9 µM |
| O=C(Cc1ccc2ccccc2c1)N[C@H](Cc1ccccc1)C(=O)N[C@H](Cc1ccccc1)C(=O)N[C@H](Cc1ccc(OP(=O)(O)O)cc1)C(=O)N[C@H](Cc1ccc(OP(=O)(O)O)cc1)C(=O)O | SAOS-2 | cell growth or viability, MTT | – | 326 mg/L |
| CNC(=O)c1cc(Oc2ccc(NC(=O)c3cc(-c4cccc(OC(=O)CCC(=O)OC5OC6OC7(C)CCC8C(C)CCC(C5C)C68OO7)c4)ccn3)cc2)ccn1 (centres unmarked) | Hep3B | cell growth or viability, MTT | 72 h | 8.2 µM |
| O=C1[O][Pt]2([OH])([OH])([NH]C3CCCCC3[NH]2)[O]C1=O (centres unmarked) | MDA-MB-157 | cell growth or viability, resazurin | 72 h | > 100 µM |
| CNC(=O)c1cc(Oc2ccc(NC(=O)c3cc(-c4ccc(OC(=O)CCC(=O)OC5OC6OC7(C)CCC8C(C)CCC(C5C)C68OO7)cc4)ccn3)cc2)ccn1 (centres unmarked) | Huh-7 | cell growth or viability, MTT | 72 h | 12.2 µM |
| C[C@H]1C(OCCCCCCCCCC[P+](c2ccccc2)(c2ccccc2)c2ccccc2)O[C@@H]2O[C@@]3(C)CCC4[C@H](C)CCC1[C@]42OO3 (some centres unmarked) | OVCAR-3 | cell growth or viability, MTT | 72 h | 0.0907 µM |

Some of these lines once more:
| Structure (SMILES) | cell line | assay | setting | IC50 |
| --- | --- | --- | --- | --- |
| CC(=O)N[C@@H](Cc1c[nH]cn1)C(=O)N[C@@H](CCCNC(=N)N)C(=O)N[C@@H](CCCNC(=N)N)C(=O)N[C@@H](CCCNC(=N)N)C(=O)N[C@@H](CCCNC(=N)N)C(=O)N[C@@H](CCCNC(=N)N)C(=O)N[C@@H](CCCNC(=N)N)C(=O)N[C@@H](CCCNC(=N)N)C(=O)N[C@@H](CCCNC(=N)N)C(=O)N[C@@H](Cc1c[nH]cn1)C(N)=O | VX2 | MTT | 24 h | 12.4 ± 1.18 µM |
| C=C1C(=O)O[C@H]2C[C@H](C)C(/C=C/C(C)=O)=CC[C@H]12 | L1210 | cell growth or viability, MTT | 24 h | 12.3 µM |
| CCC(C)C1OC(=O)C(NC(=O)c2cccc(NC=O)c2O)C(C)OC(=O)C(C(C)CC)OC(=O)C(C)(C)C(=O)C(Cc2ccccc2)OC1=O (centres unmarked) | SGC-7901/DDP cisplatin-resistant | cell viability, CCK-8 | 72 h | 0.0017 ± 0.0002 µM |
| CC(C)C12OC1C1OC13C1(C)CCC4=C(COC4=O)C1CC1OC13C2OC(=O)CCCOC1OC(CO)C(O)C(O)C1O (centres unmarked) | DLD-1 | cell growth | 1% oxygen hypoxia | 1.3 µM |
